Measurements from different studies.
Numbered parts are unrelated; each lists some results of a single study.

Block 1
Target: RNA binding protein fox-1 homolog 2, RRM domain, GST-SBP tag (RBFOX2, Homo sapiens, UniProt O43251-10, residues 100-194)
Technique: RNA Bind-n-Seq
Molecule type: RNA
Sample: in vitro
Tested at: 365 nM
Notes: natural RNA segment, single round, ends assumed
Relative to: no-protein control
Reading: higher = stronger binding
Constant ends, left off below: GGGAGUUCUACAGUCCGACGAUC … UGGAAUUCUCGGGUGCCAA
Construct (chain): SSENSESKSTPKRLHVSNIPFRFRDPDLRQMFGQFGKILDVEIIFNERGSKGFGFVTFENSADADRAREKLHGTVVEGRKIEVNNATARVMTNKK
| Strand | RBNS enrichment (R) |
| --- | --- |
| CUUUCCACCAUGUCCUGGGGGCCUGGUUAGUCCCUGGCCAUGGAGUGUGGUGGGAUGGCUGUCUUCUCUCUCCUUGUUACCUCCCUAGGAAAGAAGGGGUUGCUUUAUGG | 0.302 |
| GAGGGAGCUGACCGAUGCCGGGUGUCUUACUCCGCUGAGAUCAGAACCUCCAACAUGCCGAGCAGACGCAGGCCACAUUGCUCGGGGAACAGGACACCAGGGCGCUGUGC | 0.694 |
| CUCCUAAUCUAUGUCAUAGAAUUUUGCAUGCUGUAUGAUUGGCUUUGUCUUCUAUCUCCCACCAAAUACCACUUCCUGAGAUUCAUCUCUGAGUUUUGCAAGCGCUCAGG | 45.1 |
| AAAAUUUUCAUGGUAAAAUGCCAGCAUGUAUGUACUUGUGUAGUGUGUACUUCUAAACAGAGAAGGCUUAUAAAAGUAAAUGCAUUAAGGCCAAGUGCAGUGGCUCACAC | 3.85 |
| UAGGUAUGAAUAAGAUGACUAAGAAUGUAAUGGGGAAGAACUGCCCUGCCUGCCCAUCUCAGAGCCAUAAGGUCAUCUUUGCUAGAGCUAUUUUUACCUAUGUAUUUAUC | 1.63 |
| UAGAGAUUAGGAGACCCUUUGUGGAAGAGUGAACUUCACAAAUAGCACAAGUUCAGAAGACACAGAGGGUGUCUUCUCACACACCACACUGUGACGAGGAACUGCCAUUG | 0.341 |
| AGAAUUAGUGAUAAUAAAAAGCAGAGUGAUUUUGGUCAAUUUUAUUAUUAAUUCUUAAAUUCCCUGCAGAGAAUGCCCCCUUUAUUGCUGCACCAGGGUUGGCAUUGCUC | 1.56 |
| CACCAUGAUCUACGGGACUGUGCUUGGUCCUUUGCUUCUGCCCGUUCCCAUCUCACCUCACCAUUCCGCUAUAAGGCUUUUUAGCAUUUUAGGGCCAGGAGAGAGAGAGA | 0.221 |
| GUUGUAUCACUGUUAAACUUCUGAAGACAUAACCAGUUGAGUCUUAUUUCAAGAUAUGUUCUCAAGCCAAUUGUGUGCUUCUCUUGUUUCUGUGAUUGCUUUCUAGCCAA | 0.218 |
| AUUAUAAUGACAGAAGAAAUGUUGUUUAGACUAUUAUUUUUGUUCGACUCUAAAAGAUUUGCCAAAUAACAAAAGCAUACAAUGCAUACUGUUGGAGAACAAGAAUGCUA | 1.09 |
| AAAAAUUAACAUGUCACAAUGUAACGGAUGACCAUAUGCACAAUUCCAUGAAUUAAAUCUGUUUCCUGUGUUAGUCAGUAUUCUUAAAUAAAAUUUAUAAUUGAAACAUG | 0.443 |
| UUGUAUUUUUAGUAGAGACAGGGUUUCACCAUGUUGGCCAGGCUGGUCUUGAACUCCUGACCGCAGGUAAUCCACCUGCUUCGGCCUCCCAAAGUGCUGGGAUUACAGGC | 0.292 |

Block 2
Target: Histone acetyltransferase KAT6A, both winged helices, GST fusion (KAT6A, Homo sapiens, UniProt Q92794, residues 1-181)
Technique: protein binding microarray
Molecule type: double-stranded DNA, one strand shown
Sample: in vitro
Tested at: not given
Notes: 8-mer, flanks averaged, mean of 2 arrays, mostly near background
Relative to: not given
Reading: higher = stronger binding
Target sequence (chain): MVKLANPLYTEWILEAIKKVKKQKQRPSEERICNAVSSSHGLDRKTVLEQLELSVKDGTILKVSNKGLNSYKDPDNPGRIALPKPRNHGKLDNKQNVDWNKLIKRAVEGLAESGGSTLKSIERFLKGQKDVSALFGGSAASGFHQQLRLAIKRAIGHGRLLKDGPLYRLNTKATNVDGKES
| Strand | E-score |
| --- | --- |
| ACGGGACG | 0.241 |
| AATAGGTA | -0.258 |
| TATAGATA | 0.0118 |
| CTGTGGTC | -0.0497 |
| CTAAAGAC | -0.0452 |
| AAAAGGAT | -0.188 |
| CCACAGAC | -0.108 |
| AATCGCCC | -0.0407 |
| CAATCGGC | 0.111 |
| GTGCGGGA | 0.294 |
| TTATATAA | 0.073 |
| AGTACTAG | -0.0315 |
| CTCCCCTC | -0.231 |
| GATTTAGC | 0.0629 |
| AGCAGTAG | -0.245 |
| ACCGATTG | 0.0649 |
| CCAGATAG | -0.322 |
| CGACCATC | -0.0839 |
| GATAGCCA | -0.159 |

Block 3
Target: Sal-like protein 4, full length isoform A (SALL4, Homo sapiens, UniProt Q9UJQ4, residues 1-1053)
Chain of UniProt Q9UJQ4 (whole entry, looked up): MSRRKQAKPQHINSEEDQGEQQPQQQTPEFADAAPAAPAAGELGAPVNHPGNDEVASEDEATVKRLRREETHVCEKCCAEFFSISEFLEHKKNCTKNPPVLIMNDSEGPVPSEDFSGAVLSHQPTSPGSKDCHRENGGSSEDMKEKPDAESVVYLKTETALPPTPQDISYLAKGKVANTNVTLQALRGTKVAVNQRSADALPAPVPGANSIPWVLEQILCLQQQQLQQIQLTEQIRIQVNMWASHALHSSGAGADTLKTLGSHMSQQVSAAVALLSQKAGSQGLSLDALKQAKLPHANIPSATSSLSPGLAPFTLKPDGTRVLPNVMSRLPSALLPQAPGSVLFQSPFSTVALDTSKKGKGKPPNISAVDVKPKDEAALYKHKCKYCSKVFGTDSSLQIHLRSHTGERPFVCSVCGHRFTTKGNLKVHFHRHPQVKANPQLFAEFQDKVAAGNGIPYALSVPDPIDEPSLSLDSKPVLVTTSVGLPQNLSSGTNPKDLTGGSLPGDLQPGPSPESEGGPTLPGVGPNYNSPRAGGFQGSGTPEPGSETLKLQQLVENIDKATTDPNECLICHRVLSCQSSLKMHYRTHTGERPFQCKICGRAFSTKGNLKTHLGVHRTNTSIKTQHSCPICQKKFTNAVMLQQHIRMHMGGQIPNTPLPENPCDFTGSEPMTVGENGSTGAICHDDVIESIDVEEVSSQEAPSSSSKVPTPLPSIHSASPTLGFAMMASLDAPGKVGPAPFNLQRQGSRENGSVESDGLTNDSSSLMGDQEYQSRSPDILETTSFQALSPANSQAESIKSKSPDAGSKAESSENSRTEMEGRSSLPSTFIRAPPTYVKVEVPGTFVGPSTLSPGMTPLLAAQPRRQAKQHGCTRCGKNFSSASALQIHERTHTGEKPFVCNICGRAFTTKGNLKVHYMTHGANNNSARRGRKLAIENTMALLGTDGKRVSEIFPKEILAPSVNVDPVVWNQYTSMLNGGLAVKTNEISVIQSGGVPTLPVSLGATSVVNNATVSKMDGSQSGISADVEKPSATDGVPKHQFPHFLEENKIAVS
Technique: universal PBM
Molecule type: double-stranded DNA, one strand shown
Sample: in vitro
Tested at: 600 nM
Notes: 8-mer, flanks averaged, mean of replicates
Reading: higher = stronger binding
| Strand | E-score |
| --- | --- |
| CAATCTGA | 0.0503 |
| CATCGAGG | -0.104 |
| AGACGCAA | 0.0317 |
| TGACGTAA | 0.165 |
| CGTTATAG | 0.258 |
| GGATGTCA | 0.00805 |
| CCGAGTCA | -0.0814 |
| AAGCGGCA | -0.137 |
| AATACTCG | 0.126 |
| CTCCGTAC | -0.294 |
| AATATCCG | 0.262 |
| AAACTGGT | -0.0353 |
| ACGCTTAG | -0.0923 |
| AGCGGTAG | -0.164 |
| AAGACATT | 0.111 |
| GGATCACC | -0.277 |
| GGGCGAGA | -0.296 |
| AGCCGGAC | -0.294 |
| CCACACAC | -0.283 |
| CCGAATAG | -0.0305 |

Block 4
Target: RING finger protein unkempt homolog, zinc fingers 1-6, GST-SBP tag (UNK, Homo sapiens, UniProt Q9C0B0, residues 30-357)
Chain of UniProt Q9C0B0 (30-357, looked up): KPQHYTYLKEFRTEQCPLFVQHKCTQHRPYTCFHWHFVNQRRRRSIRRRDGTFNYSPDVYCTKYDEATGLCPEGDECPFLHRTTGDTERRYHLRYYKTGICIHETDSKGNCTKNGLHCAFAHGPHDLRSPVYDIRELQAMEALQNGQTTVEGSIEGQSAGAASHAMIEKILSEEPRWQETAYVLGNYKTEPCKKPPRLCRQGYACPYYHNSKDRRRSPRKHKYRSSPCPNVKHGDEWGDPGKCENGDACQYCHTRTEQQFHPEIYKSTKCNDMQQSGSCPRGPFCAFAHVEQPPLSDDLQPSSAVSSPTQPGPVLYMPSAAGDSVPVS
Technique: RNA Bind-n-Seq
Molecule type: RNA
Sample: in vitro
Tested at: not given
Notes: RNA with constant flanks, human-mouse chimeric sites, ends assumed
Relative to: input RNA pool
Reading: higher = stronger binding
Constant ends, left off below: GGGAGUUCUACAGUCCGACGAUC … CAACAGAGGAUUGAGCAUCA
| Strand | bound/input enrichment |
| --- | --- |
| AUGCAGUAUGAGACCAACAGCAUGGACUUCAAAGUUGGGGCAGAUGGGACAGUCUUCGCCACCCGGGAGCUGCAGGUCCCCUCCGAGCAGGUGGCCUUCACGGUGACUGCAUGGGACAGC | 0.184 ratio |
| GGCCUGGGACCGUCCUGGCUAGUGCAAAAUAGCGGCAGUGGAGGCUCGAGAGGAAAGUUUGUUAGUGGAGGCAGUGGUAGAGGCCGUCAUGUACGGUCCUUUACUCGUAAAAAUCCUUCU | 0.281 ratio |
| AGAGAAAUGAGAAAGAAUCUUACACAAGAAGAGAUGCAAAGAAUGUCUACUAGAGUCCUUUUGGCGACUCUUUCCAUUCCUAUUACUCCUGAGCGUACUGAUAUUGCUCGACUUUUGGAU | 0.163 ratio |
| CAGCUGCAGACAGAAAAGGAUGAGAAGGAGCUGUAUAAGGUACAUUUGAAGAAUACAGAAAUAGAAAAUACCAAGCUUGUGUCAGAGGUCCAGACUUUAAAGAAUUUAGAUGGAAACAAA | 1.8 ratio |
| CUGUGACCACAAGAUCCUGAAGUUUGAUUCAGAUGGGUUGACUCCCUCUCCUUGCCUGAACCCCCCCCCACUGCCCCCCCAUCCCCCAGUGUCGGCUGAGAUGUUGCCUCUGCACGGUUC | 1.32 ratio |
| UUGCUACUGACUCCCUGGGUCAAGUUCCUGUGGGAAUCAUACAGGCAGUGUUUGGACCUUCUUAGAAACAAUUCUAGAGUAGAGCGCCUGUACCAUGAUAUCGCCCAACAAGCUUUCAAA | 0.233 ratio |
| CAGGGCAUCAUCUCUCGUGCUGUUAGACACCUUUUUAAGAGUAUUGAUGAGAAAAAGACCUCAGCGAUUAAAAACGGGCUGCCCCCUCCAGAUUUUAAAGUGAAUGCCCAGUUCCUAGAG | 0.72 ratio |
| AGCACAACCCCAGCAAAGCUAAGAAAUCCUUGCACAAGUGAACAAAACUGCACCAGCCCAUUUAGCUACAAAAAUGUGCUUAGUCUUACUGACAGAGGAGAGUUUUUCAAUGAACUUGUU | 0.958 ratio |
| UUUCUACUGCAGCAAACGAUGCUAAGAAUUAAGGAUCCUAAGAAGUCCCUGGAUUUUUAUACUAGAGUUCUUGGAAUGACCCUCCUGCAGAAGCUUGACUUCCCUGCUAUGAAGUUCUCG | 0.308 ratio |
| AGUGUGCAGGAAUUCAUGACCUUUACAAGUCAACUGAUUGUGGAACGCUCAUCGAAAGGCAGCAGAGCUUCUGUCAAAGAACAAGACUAUCUUUGCCAUGUCUACGUCCGGAGCGACAGU | 0.1 ratio |
| GAUAAGAAAAGCUUGUUGGAGACCCGCUUGCACAUCACUGGUAGAGACCUGAGGUGUCAAAUAGCUGAAACUUUCGGAUUUCAAGAAAAUUACAUCAAGAUCGUAAUAAAUAAGAAACAG | 0.305 ratio |

Block 5
Target: Prothrombin, mature alpha-thrombin (F2, Homo sapiens, UniProt P00734)
Technique: aptamer microarray, sandwich
Molecule type: DNA with 2'F-ANA
Sample: in vitro
Tested at: 200 nM
Notes: whole 15-mer aptamer, many near background
With: Cy3 exosite-II aptamer, 400 nM
Reading: higher = stronger binding
Strand: GGTTGGTGTGGTTGG
| Modification | mean fluorescence intensity [a.u.] |
| --- | --- |
| 2'F-ANA at 3 6 8 9 10 15 | 506 |
| 2'F-ANA at 3 4 8 9 14 | 327 |
| 2'F-ANA at 2 4 5 6 10 12 13 14 | 50.7 |
| 2'F-ANA at 3 5 7 8 9 11 | 132 |
| 2'F-ANA at 1 2 4 7 8 11 12 13 14 | 61.7 |
| 2'F-ANA at 2 3 5 6 7 8 9 10 11 | 52.9 |
| 2'F-ANA at 4 6 8 9 11 13 14 | 66.1 |
| 2'F-ANA at 2 4 8 11 12 14 | 141 |
| 2'F-ANA at 1 2 3 4 8 10 11 14 15 | 67.1 |
| 2'F-ANA at 1 3 5 7 8 10 11 13 | 59.1 |
| 2'F-ANA at 1 3 4 6 7 9 11 13 14 | 55.7 |
| 2'F-ANA at 1 3 4 6 7 9 10 | 64.8 |
| 2'F-ANA at 2 5 8 10 14 15 | 70.7 |
| 2'F-ANA at 1 10 12 13 14 15 | 57.8 |
| 2'F-ANA at 1 5 8 10 12 15 | 61 |
| 2'F-ANA at 3 7 9 12 15 | 1470 |
| 2'F-ANA at 1 3 4 6 9 12 14 15 | 78.2 |
| 2'F-ANA at 1 3 4 6 7 9 13 15 | 97.5 |
| 2'F-ANA at 3 8 11 12 13 | 1230 |
| 2'F-ANA at 1 3 4 5 8 10 11 13 14 15 | 48.1 |
| 2'F-ANA at 3 7 12 13 14 | 789 |
| 2'F-ANA at 2 5 7 9 10 13 14 | 47.1 |
| 2'F-ANA at 3 5 6 7 12 13 14 15 | 56.5 |
| 2'F-ANA at 3 7 8 11 | 1210 |
| 2'F-ANA at 1 2 3 5 6 8 11 14 15 | 56.2 |
